Experimental data pooled from the literature.
Compare with care: the assays were run in different laboratories. “And” joins repeats or separate records; there may be more than shown. ± marks the error that the study gave.
uncharacterized protein: uncharacterized protein (Spodoptera exigua, UniProt F1CEY0)
ALB: Albumin (ALB, Homo sapiens, UniProt P02768)

`CC1(C)CC2(C)OC(=O)NC2(C)c2ccccc21` (stereo not drawn) has a fold enrichment of 1.14 (DNA mismatch repair protein Msh6 (Homo sapiens, UniProt P52701); binding, affinity selection mass spectrometry; baseline: other proteins in batch).
For `O=C(COP(=O)(O)O)[C@@H](O)[C@H](O)[C@H](O)COP(=O)(O)O`, “thermal stability ratio” read 0.634 (Small ribosomal subunit protein uS5 (Homo sapiens, UniProt P15880); thermal proteome profiling, item: RPS2; HepG2 cell lysate; concentration not given, 57 over 37 °C, mean; baseline: compound over control).
`C=CC(=O)N1CCC(COCC(=O)N2CCN(c3nc(-c4cnc(N)nc4C(F)F)nc(N4CCOC[C@@H]4C)n3)CC2)CC1` gave a remaining binding of 1.2% (Tyrosine-protein kinase JAK1, JH2 pseudokinase domain (JAK1, Homo sapiens, UniProt P23458); KINOMEscan; 1 µM; baseline: DMSO control).
`CCn1c(-c2nc3cc(C(=O)N4CCC[C@@H](N)C4)cc(OC)c3n2C)cc2cccnc21`: citrullination “no effect” (PADI2 (Homo sapiens, UniProt Q9Y2J8); enzyme activity, cell lysate; HEK293 expressing PADI2; 100 µM, added: calcium 2 mM).
`CC(C)C[C@H](NC(=O)C[C@H](O)[C@H](CC(C)C)NC(=O)[C@H](Cc1c[nH]cn1)NC(=O)CNC(=O)[C@@H](NC(=O)[C@H](C)NC(=O)[C@H](Cc1c[nH]c2ccccc12)NC(=O)[C@H](CCC(N)=O)NC(=O)[C@@H](Cc1ccccc1)NC(=O)COCCOCCNC(=O)CCC(C(=O)O)N1CCN(CC(=O)O)CCN(CC(=O)O)CCN(CC(=O)O)CC1)C(C)C)C(N)=O` (stereo partly drawn) [lutetium-177 labelled] gave a tissue uptake of 0.013 ± 0.004 %ID/g (female BALB/c nu/nu mice, lung; intravenous, 50 pmol, 24 h).
For `O=c1nc(SCc2cc(F)cc(C(F)(F)F)c2)nc(SCc2csc3ccc(Cl)cc23)[nH]1`, the decatenated DNA was 0.3% (TOP2B (Homo sapiens, UniProt Q02880); decatenation; 31.25 µM, replicate 1).
For `CC1=CCCC(C)(C)C1/C=C/C(C)O` (stereo not drawn), the relative fluorescence was 74% (uncharacterized protein; binding, 1-NPN competitive displacement; protein 2.0 µM, added: 1-NPN 20 µM; baseline: 1-NPN without compound, lower = stronger binding).
With `Cn1c(=O)c2ccc(C(=O)Nc3ccccc3F)nc2n(C)c1=O` the displacement was 24 ± 4% (ADORA2A (Homo sapiens, UniProt P29274); binding, radioligand competition; 30 µM, added: [3H]ZM241385).
The Hill slope of `N[C@H](CNC(=O)c1cc(Br)c(-c2ccccc2Br)s1)C(=O)O` is reported as 1.37 (Glutamate receptor ionotropic, NMDA 1, with GluN2A (Grin1, Rattus norvegicus, UniProt P35439); added: glutamate 300 µM).
`Nc1ncnc2c1ncn2[C@@H]1O[C@H](COP(=O)(O)OP(=O)(O)NP(=O)(O)O)[C@@H](O)[C@H]1O` gave a -TΔS of -4.5 kcal/mol (Cell cycle histidine kinase CckA, CA domain (Caulobacter vibrioides, UniProt Q9X688); ITC; 12 °C, without c-di-GMP).
With `COc1cc(-c2cncc3c2CN(C)Cc2cc(N4CCNCC4)ccc2-3)cc(OC)c1OC` the remaining activity was 117% (WEE2 (Homo sapiens, UniProt P0C1S8); kinase activity; 1 µM, human enzyme, added: ATP 10 µM; baseline: DMSO control).
For `COc1cc(O)c2c(c1)oc(=O)c1c3cc(O)c(O)cc3oc21`, “random coil content” read 41.6% (MAL12 (Saccharomyces cerevisiae S288c, UniProt P53341); circular dichroism; molar ratio 1:2).
With `N[C@H](CNC(=O)c1ccc(-c2ccccc2)s1)C(=O)O` the Hill slope was 1.68 (Glutamate receptor ionotropic, NMDA 1, with GluN2C (Grin1, Rattus norvegicus, UniProt P35439); added: glutamate 300 µM).
With `CC(=O)N[C@H](C(=O)N1C[C@H](O)C[C@H]1C(=O)NCc1ccc(-c2scnc2C)cc1)C(C)(C)SCCCCCCNC(=O)C[C@@H]1N=C(c2ccc(Cl)cc2)c2c(sc(C)c2C)-n2c(C)nnc21` the binding stoichiometry was 0.81 ± 0.04 (von Hippel-Lindau disease tumor suppressor, with elongin B/C (VHL, Homo sapiens, UniProt P40337); PROTAC, ITC; concentration not given, 25 °C).
`COC(=O)C(Cc1cccc(OC)c1I)NC(=O)CN` (stereo not drawn) — result for activity: “inactive” (OPRK1 (Homo sapiens, UniProt P41145); binding; concentration not given).
With `CC(=O)/C=C/C1=C(C)CCCC1(C)C` the relative fluorescence was 64.3% (uncharacterized protein; binding, competitor, fluorescence displacement; 20 µM, pH 7.4, added: 1-NPN 20 µM; baseline: 1-NPN alone).
The selectivity ratio of `O=C(Nc1ccc(-c2ccccc2)cc1)c1cnn(-c2ccc([N+](=O)[O-])cc2)c1C(F)(F)F` is reported as 0.98 (PTGS2 (Homo sapiens, UniProt P35354); enzyme activity, inhibitor; baseline: COX-1 IC50 over COX-2 IC50).
For `COc1cc(-c2[o+]c3cc(O)cc(O)c3cc2O[C@@H]2O[C@H](CO)[C@@H](O)[C@H](O)[C@H]2O)cc(O)c1O`, the bathochromic shift was 69 nm (ALB; binding, visible absorption; 50 µM, pH 7, added: HSA up to 200 µM; baseline: without HSA).
The inhibition of `O=C(Nc1cccc2c(=O)cc(-c3nnn[nH]3)oc12)c1ccc(OCCCCc2ccccc2)cc1` is reported as 2.89% and -10.2% and -3.28% and 10.7% (Volume-regulated anion channel subunit LRRC8C, part LRRC8A IL1 chimera (LRRC8C, Homo sapiens, UniProt Q8TDW0); ion current, inhibitor, whole-cell patch clamp; HCT LRRC8-/- cells, transfected; 0.1 µM, low ionic strength swelling, +100 mV).
`CCN1CCC[C@H]1CNC(=O)c1c(O)c(Cl)cc(Cl)c1OC` — result for “log2 fold change”: 0.183 (G-protein coupled receptor 78 (GPR78, Homo sapiens, UniProt Q96P69); β-arrestin recruitment, TANGO luminescence, item: GPR78; concentration not given; baseline: basal luminescence).
`Nc1nc2c(ncn2[C@@H]2O[C@H](COP(=O)(O)O)[C@@H](O)[C@H]2O)c(=O)[nH]1` has a reaction rate of -0.659 s⁻¹ and -0.142 s⁻¹ and 0.642 s⁻¹ (GUK1 (Homo sapiens, UniProt Q16774, E72A); enzyme activity, NADH-coupled; 62.5 µM).
For `CCCCCCC=O`, the relative fluorescence was 74.1% (uncharacterized protein; binding, competitor, fluorescence displacement; 20 µM, pH 7.4, added: 1-NPN 20 µM; baseline: 1-NPN alone).
`Cn1cc(-c2ccc(-c3cncc(Cl)c3N3CCC4(CCNC4=O)CC3)cc2)cn1`: “log2 fold change” 2.1 (COLO 205; gene expression, microarray, item: DDB2 mRNA; concentration not given, 2 h; baseline: untreated cells).
`CCCCCCCCCCCCCCCCCCCC` gave a relative fluorescence of 77.9% (uncharacterized protein; binding, competitor, fluorescence displacement; 20 µM, pH 7.4, added: 1-NPN 20 µM; baseline: 1-NPN alone).
`CC[C@H](C)[C@@H]1NC(=O)[C@H](CO)NC(=O)[C@@H]2CCCN2C(=O)[C@@H](NC(=O)CN)CSSC[C@@H]2NC(=O)CNC(=O)[C@H](C)NC(=O)[C@H](CC(C)C)NC(=O)[C@@H]3CSSC[C@@H](C(=O)NCC(=O)O)NC(=O)[C@H](Cc4ccccc4)NC(=O)CNC(=O)[C@H](CC(N)=O)NC(=O)[C@@H]4CCCN4C(=O)CNC(=O)[C@H](CSSC[C@H](NC(=O)[C@H](CCCNC(=N)N)NC(=O)[C@@H]4CCCN4C(=O)[C@H](CCCNC(=N)N)NC(=O)[C@H](CCCCN)NC(=O)[C@H](C(C)C)NC(=O)[C@H](CCCNC(=N)N)NC(=O)[C@H](CC(N)=O)NC1=O)C(=O)N[C@@H](CCCCN)C(=O)N[C@@H](CCC(N)=O)C(=O)N[C@@H](CC(=O)O)C(=O)N[C@@H](CO)C(=O)N[C@@H](CC(=O)O)C(=O)N3)NC(=O)[C@H](C(C)C)NC2=O` has a kon of 1.47e+06 ± 120000 M⁻¹ s⁻¹ (Low-density lipoprotein receptor-related protein 6, E1 domain (LRP6, Homo sapiens, UniProt O75581); binding, SPR; pH 7.5).
`Cc1n[nH]c2ccc(-c3cc(OC[C@@H](N)Cc4ccccc4)cnc3-c3ccoc3)cc12`: “log2 fold change” -0.272 (Carbon catabolite-derepressing protein kinase (SNF1, Candida albicans, UniProt P52497); kinase binding, competitor, MIB/MS competition, item: SNF1; Candida albicans cell lysate; 100 nM; baseline: DMSO).
`NC/C(=C\F)COc1cccc(Cn2c(=S)[nH]c(=O)c3[nH]cnc32)c1` has an inhibition of under 50% (rat L-type calcium channel; radioligand binding; 10 µM, benzothiazepine site).
`Nc1ncnc2c1ncn2[C@@H]1O[C@H](COP(=O)(O)OP(=O)(O)OP(=O)(O)O)[C@@H](O)[C@H]1O` has a Km of 300 ± 100 µM (CKMT1A (Homo sapiens, UniProt P12532, H99A); substrate, ADP-Glo luminescence; pH 8.5, forward reaction, H61A mutant, added: second substrate in excess).
`Cc1occc(=O)c1[O-].[Cl-].[W+4].c1cc[cH-]c1.c1cc[cH-]c1` — result for “Gibbs free energy change”: -25.6 kJ/mol (ALB; binding, fluorescence quenching; 317 K).
`CCCCC[C@@H]1NC(=O)[C@@H]2C[C@@H](OCC(=O)O)CN2C(=O)[C@H](CC(=O)O)NC(=O)[C@H](Cc2ccc(O)cc2)NC(=O)[C@H](CO)NC(=O)[C@H]([C@@H](C)CC)NC(=O)[C@H](Cc2ccc(-c3ccccc3)cc2)NC(=O)[C@H](CC(C)C)NC(=O)[C@@H]2CCCN2C(=O)[C@@H](NC(=O)[C@H](CCCNC(=N)N)NC(=O)[C@H](CCCNC(=N)N)NC(C)=O)CSSC[C@@H](C(=O)N[C@@H](CCCNC(=N)N)C(=O)N[C@@H](CCCNC(=N)N)C(N)=O)NC1=O` — result for “lowest bound protein concentration”: 0.04 µM (GTPase KRas, GDP-bound (KRAS, Homo sapiens, UniProt P01116, G12D); affinity selection mass spectrometry; mixture library 4, added: protein titration up to 2.5 µM; lower is stronger binding).
